Results from different studies.
Each numbered part is a random draw from the data of one study; scales do not carry over between parts.

Block 1
Target: RNA binding protein fox-1 homolog 2, RRM domain, GST-SBP tag (RBFOX2, Homo sapiens, UniProt O43251-10, residues 100-194)
Method: RNA Bind-n-Seq
Form: RNA
Sample: in vitro
Tested at: 365 nM
Setting: natural RNA segment, single round, ends assumed
Relative to: no-protein control
Direction: higher = stronger binding
Construct (chain): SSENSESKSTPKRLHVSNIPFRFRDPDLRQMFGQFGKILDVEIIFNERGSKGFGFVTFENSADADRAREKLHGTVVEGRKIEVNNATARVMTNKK
Under “RBNS enrichment (R)”, `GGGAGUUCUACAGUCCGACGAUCCACACGGAAAGAGAUAAGAAAAGCAGAGAGAGUGGGGUCACCCCACCAACACAGGUUGCAGAGUGCUCAGUCCUGCUCUGCCUAGCUGGCCCCACCCCAGCUCUCUUUCUUGGAAUUCUCGGGUGCCAA` is recorded as 0.547.
Under “RBNS enrichment (R)”, `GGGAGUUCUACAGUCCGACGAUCACCAGAGCAUGAUGUUGCUGGCCAGAUGACCCCUUUUGCUGUAUUGAAAUUAACUUGGUAGAUGGCUUUAGCUUAGAAAAGCAGCUUCUUAGAACCAAGGGCCUCAUUAUUGGAAUUCUCGGGUGCCAA` is recorded as 9.17.
`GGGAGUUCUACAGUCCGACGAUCAAAAAUGCCUUUAAAAACCUUCCUGAGACUUAAGCAUUCUGCCCCACUUACUAACUGCCAGUUCUCCAGCACUGAGGUGGGGCAGAUAACGGGGCAUAUUUAAGGGGGCAUGGAAUUCUCGGGUGCCAA`: “RBNS enrichment (R)” 0.592.
For `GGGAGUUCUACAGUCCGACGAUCCCAUGACCAUCAGGUUAGUAACCGAGACUUUGCCCUGGUGAGCUGAGAGUAGACCUGGUUACCGGCAGUGCAUGAUGUCAGGGUCAGCCUGAAGCUAUUGCUGCUCGUCUUGGAAUUCUCGGGUGCCAA`, “RBNS enrichment (R)” read 4.35.
`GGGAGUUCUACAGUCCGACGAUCUGCUGAUUCCACAGCAUGCAGCCUGGUAGGGGAAGGAAAAUAAAAGGGUGUGAAGAAGGAAUAGUUUUAUAAUCUCGGAAGAUGAUACCAAGAGCAGAGGCAACAAAUAGUGGAAUUCUCGGGUGCCAA`: “RBNS enrichment (R)” 12.
`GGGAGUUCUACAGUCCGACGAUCGAAAGAGGGCAUUCAUGCAUAGAAUUCUGAGGCCUGGCACAACUCCCUGCCCAGGAGCACAGCUUGCUGCUGAGGGCUGGGUGUGACCGUGUCUGCCUCUGGCUGCUGGGUGGAAUUCUCGGGUGCCAA` — result for “RBNS enrichment (R)”: 3.78.
Under “RBNS enrichment (R)”, `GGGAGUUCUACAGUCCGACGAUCUUUCUCUCUCCUGAACCCUACUCUCUCCUUUUUGCUUCCUCAGUUUUUAUCAGGCUUUCUCUGGGGGACAGCAGUCUCUGAGCACCAGGGAGCAGUUGCCCUCAGGCCUGUGGAAUUCUCGGGUGCCAA` is recorded as 0.395.
For `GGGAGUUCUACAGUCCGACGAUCUCCUGUCCCUUGGUUCAGGAAAGUAGCUUGGAAAAGGAGUAGGGGUAUAGCUUGGGUCCCUUUUCCUGCAAGGCCCCAUGGGGCAGAAUAUAAUAAAUAUUCUGAGUGAGUGGAAUUCUCGGGUGCCAA`, “RBNS enrichment (R)” read 1.55.
`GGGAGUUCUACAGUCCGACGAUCAGUGUUAGGACGGUUUGAGAGGGAAGGAGAGAGAGAAGAAAGACGAACCACUUGAGACUGAGACUGUCCCCUCCAGCUGUGCUGUACUUCCAGGUGCGCACUUUAAAGAAUGGAAUUCUCGGGUGCCAA`: “RBNS enrichment (R)” 0.814.
`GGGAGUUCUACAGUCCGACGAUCAAAGGAAAAGGAAAGGACUAAGUCAGGAGGCCAGAGAGCCUCCGGCCUCGCCUGGAGCCUGAACGGAGCCCUCCUCUCCCACAGGCCCAAGAUAUAACCCACCAGUGCCUUGGAAUUCUCGGGUGCCAA` — result for “RBNS enrichment (R)”: 0.37.
Under “RBNS enrichment (R)”, `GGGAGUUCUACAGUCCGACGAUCAACACUGAACUUAUCAGAAAAAUGUAUAUAUAGGCAAGGAAAGAAAUACAGUACUGUUUCUGGACCCUUAUAAAAUCCUGUGCAAUAGACACAUACAUGUCACAUUUAGCUGGAAUUCUCGGGUGCCAA` is recorded as 0.375.
`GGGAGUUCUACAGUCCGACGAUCAAAACUUGGAGGGUCUCGGUUGUUUUCCAUGCCUGGCCCCUCACAGCAGCGAGGCCACUGAAGAGCAACACACCCAGUGUGUGUCAGUGUUCUCAGCCCAGCCCUCCCUGUGGAAUUCUCGGGUGCCAA`: “RBNS enrichment (R)” 0.271.

Block 2
Target: Histone acetyltransferase KAT6A, winged helix 1, GST fusion (KAT6A, Homo sapiens, UniProt Q92794, residues 1-85)
Method: protein binding microarray
Form: double-stranded DNA, one strand shown
Sample: in vitro
Tested at: not given
Setting: 8-mer, flanks averaged, mean of 2 arrays, mostly near background
Relative to: not given
Direction: higher = stronger binding
Residues (chain): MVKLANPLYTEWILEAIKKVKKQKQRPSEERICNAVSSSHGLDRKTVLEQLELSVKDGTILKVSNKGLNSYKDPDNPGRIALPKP
`CTCCGGGC` gave an E-score of 0.0284.
For `CAAGCTGG`, the E-score was -0.154.
`AGTAATAT` has an E-score of -0.029.
`GTCTCACA` gave an E-score of -0.0238.
The E-score of `CTAGCCCA` is reported as -0.162.
`AGGAAGAC` has an E-score of -0.313.
`ACCCAGGG` gave an E-score of -0.278.
`CTGCGGTA` has an E-score of 0.228.
For `ATGGCTGC`, the E-score was -0.126.
The E-score of `GGCCAAGA` is reported as -0.174.
With `AGCCAGCA` the E-score was -0.125.
With `CAGCGCAA` the E-score was 0.172.
`GCCATCTA` has an E-score of -0.137.
The E-score of `GAAAAACA` is reported as -0.188.
`CGCGATAC` has an E-score of 0.334.
With `GGCATTGA` the E-score was 0.138.
`AATCTGTA` has an E-score of -0.0158.
`GGCGTCCA` gave an E-score of 0.0942.
The E-score of `CGGACCGA` is reported as 0.155.
`GTATCAGA` gave an E-score of -0.0265.
With `GCCGTTTA` the E-score was 0.274.
`CCGTTTGC` has an E-score of 0.235.
`AACCTCAA` has an E-score of -0.14.
`ATATAGCC` gave an E-score of -0.0057.
`ATCCCTTC` has an E-score of -0.000685.

Block 3
Target: Prothrombin, mature alpha-thrombin (F2, Homo sapiens, UniProt P00734)
Method: aptamer microarray, sandwich
Form: DNA with 2'F-ANA
Sample: in vitro
Tested at: 200 nM
Setting: whole 15-mer aptamer, many near background
Together with: Cy3 exosite-II aptamer, 400 nM
Direction: higher = stronger binding
Strand: GGTTGGTGTGGTTGG
`2'F-ANA at 1 2 4 6 7 9 10 12` — result for “mean fluorescence intensity”: 55.3 a.u.
Under “mean fluorescence intensity”, `2'F-ANA at 1 3 7 9 12 13 15` is recorded as 454 a.u.
`2'F-ANA at 2 6 10 12` — result for “mean fluorescence intensity”: 197 a.u.
For `2'F-ANA at 1 2 5 6 10 15`, “mean fluorescence intensity” read 49 a.u.
Under “mean fluorescence intensity”, `2'F-ANA at 1 2 3 4 6 7 9 10 11 12 15` is recorded as 65.7 a.u.
Under “mean fluorescence intensity”, `2'F-ANA at 3 4 5 6 9 10 12 13 14 15` is recorded as 53 a.u.
`2'F-ANA at 3 5 6 7 8 10 13 14 15`: “mean fluorescence intensity” 52.5 a.u.
For `2'F-ANA at 1 2 3 4 5 7 8 10 12 13 15`, “mean fluorescence intensity” read 59.4 a.u.
`2'F-ANA at 1 2 3 5 6 7 8 9 10 13`: “mean fluorescence intensity” 70.1 a.u.
`2'F-ANA at 2 4 5 7 8 10 11 12 14 15`: “mean fluorescence intensity” 45.6 a.u.
`2'F-ANA at 1 3 4 6 9 10 11 12 13 15`: “mean fluorescence intensity” 78.6 a.u.
For `2'F-ANA at 4 7 8 10 12 13 14`, “mean fluorescence intensity” read 65 a.u.
For `2'F-ANA at 3 4 5 8 10 13 14 15`, “mean fluorescence intensity” read 194 a.u.
For `2'F-ANA at 1 2 9 12 14`, “mean fluorescence intensity” read 74.3 a.u.
Under “mean fluorescence intensity”, `2'F-ANA at 2 3 6 8 9 10 11 13 14 15` is recorded as 241 a.u.
For `2'F-ANA at 4 5 6 7 10 12 13`, “mean fluorescence intensity” read 57.2 a.u.
`2'F-ANA at 2 5 6 7 8 11 12`: “mean fluorescence intensity” 123 a.u.

Block 4
Target: Interferon regulatory factor 7, full length, phosphomimetic (IRF7, Homo sapiens, UniProt Q92985, residues 1-503, S471D/S472D/S475D/S476D/S477D/S483D/S484D/S487D)
UniProt Q92985, sequence (whole entry, unmodified, looked up): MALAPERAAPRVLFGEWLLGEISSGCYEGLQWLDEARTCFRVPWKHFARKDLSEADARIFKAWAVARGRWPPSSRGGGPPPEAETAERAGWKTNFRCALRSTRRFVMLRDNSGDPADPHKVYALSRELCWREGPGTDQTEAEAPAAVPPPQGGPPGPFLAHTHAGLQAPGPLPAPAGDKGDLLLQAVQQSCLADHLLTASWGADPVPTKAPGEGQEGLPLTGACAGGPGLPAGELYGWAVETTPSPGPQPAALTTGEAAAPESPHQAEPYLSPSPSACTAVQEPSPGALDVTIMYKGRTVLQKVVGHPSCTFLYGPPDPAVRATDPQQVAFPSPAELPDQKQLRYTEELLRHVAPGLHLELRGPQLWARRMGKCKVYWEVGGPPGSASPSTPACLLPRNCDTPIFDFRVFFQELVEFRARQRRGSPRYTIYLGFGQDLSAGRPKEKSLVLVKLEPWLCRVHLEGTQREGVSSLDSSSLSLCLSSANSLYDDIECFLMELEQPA
Method: protein-binding microarray
Form: double-stranded DNA, one strand shown
Sample: in vitro
Tested at: 2200 nM top
Setting: 60-bp whole probe
Together with: salmon DNA 0.4 mg/ml
Relative to: random background probes
Direction: higher = stronger binding
All sequences stand within: GCCTAGCAC … GTCTTGATTCGCTTGACGCTGCTG
`AGTGGGGAGGGAGAGAATCCGTGCTAG`: “fitted relative affinity” -0.02 z-score.
Under “fitted relative affinity”, `TGGTGCTTAGTATTTTTTTCCGTGCTA` is recorded as 0.48 z-score.
For `TAAGATATCAGTATCGATTAGTGCTAG`, “fitted relative affinity” read 0.215 z-score.
For `GACCATTTCGGGACTGGAGACGTGCTA`, “fitted relative affinity” read 0.904 z-score.
For `CACGGTCTCGGTTTCGGGACGTGCTAG`, “fitted relative affinity” read 3.6 z-score.
For `CTACTTCTCTTTTGGCTTTCGTGCTAG`, “fitted relative affinity” read 3.84 z-score.
For `GACGGTATCCGTCTCCTGACGTGCTAG`, “fitted relative affinity” read 0.568 z-score.
`TTAGGACTGTTTATCCTTTAGTGCTAG`: “fitted relative affinity” 0.534 z-score.
Under “fitted relative affinity”, `GACGGTATCGGCCTCGGGACGTGCTAG` is recorded as -0.481 z-score.
Under “fitted relative affinity”, `CAGGTTTCTGATGGGCCTAGGTGCTAG` is recorded as 1.94 z-score.
Under “fitted relative affinity”, `TCATTTTAATTTTTAACACTGTGCTAG` is recorded as 1.28 z-score.
Under “fitted relative affinity”, `TTAGGTATCCTTATCCCTTAGTGCTAG` is recorded as 1.43 z-score.
Under “fitted relative affinity”, `CACTTTCTTTAACTCATTCTGTGCTAG` is recorded as 2.62 z-score.
For `TTAGATCTCAGACTGGACTAGTGCTAG`, “fitted relative affinity” read -0.156 z-score.
`GACGGTTTCCTACAGCTGACGTGCTAG` — result for “fitted relative affinity”: 1.54 z-score.
`GGCGGACTGCTTTTCCTGACGTGCTAG`: “fitted relative affinity” -0.0849 z-score.
`GCCGGACTGGGTCTCGGGACGTGCTAG`: “fitted relative affinity” -1.28 z-score.
`TTAGGTTCCCTTTCCCTTTAGTGCTAG` — result for “fitted relative affinity”: 4.19 z-score.
Under “fitted relative affinity”, `TTTTTTTTCACTATTGCTTCGTGCTAG` is recorded as 3.38 z-score.
`GACGGACTGCTTCACCTGACGTGCTAG`: “fitted relative affinity” 0.26 z-score.
For `TGGGTGACTCTTACTCATTAGTGCTAG`, “fitted relative affinity” read 0.331 z-score.
`TCATCACTCAATCTCAAACTGTGCTAG`: “fitted relative affinity” 0.901 z-score.
`TCACTTATGATATATATAACTGTGCTA`: “fitted relative affinity” 0.554 z-score.

Some of these lines once more (block 2):
`GGCGTCCA` gave an E-score of 0.0942.
The E-score of `CGGACCGA` is reported as 0.155.
`GTATCAGA` gave an E-score of -0.0265.
With `GCCGTTTA` the E-score was 0.274.
`CCGTTTGC` has an E-score of 0.235.
`AACCTCAA` has an E-score of -0.14.
`ATATAGCC` gave an E-score of -0.0057.
